Published values from different studies.
Every numbered part comes from another study and shows a few of its results, in no order. Substitutions count along the parent as printed.

Sample 1
Target: RNA binding protein fox-1 homolog 2, RRM domain, GST-SBP tag (RBFOX2, Homo sapiens, UniProt O43251-10, residues 100-194)
Technique: RNA Bind-n-Seq
Form: RNA
Sample: in vitro
Tested at: 365 nM
Setting: natural RNA segment, single round, ends assumed
Baseline: no-protein control
Reading: higher = stronger binding
Constant ends, left off below: GGGAGUUCUACAGUCCGACGAUC … UGGAAUUCUCGGGUGCCAA
Residues (chain): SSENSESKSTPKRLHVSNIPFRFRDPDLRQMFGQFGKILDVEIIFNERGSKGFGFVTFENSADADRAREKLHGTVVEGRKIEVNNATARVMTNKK
Strand	RBNS enrichment (R)
AGAAUUCAGAGCACGGAACUUUCCAAGAACUGGUGUUAACAUCUUGUACUGUGGCCACGAUUUGUCCCCGUGAUGAUUCUUGGGUCUAGAUUGUGAGUUCUUCAAGGGCA	1.39
UUUCUCCUUUCUUCCAUUGCUUUGUCCCUCUUCCCCUGUGCUUCCUGCCUUCUUUCCCUGUCCCAUGGGCACAGUCCUCACAGGGAGUGGCCUCCUCUCUCCAGUGAUGU	0.814
CAUCUCUCAGAGAUGUGAAGCCAGAUCCUCAUGGCAGCGAGGCCCUCUGCAAGAAGCUCAAGGAAGCUCAGGGAAAAUGGACGUAUUCAGAGAGUGUUUGUAGUUCAUGG	0.599
AUGAAGUACGGAACUGGGAACUGGGGUCGUUGUUGACUAAUUGGUCCUAAGAGGAUAAAUUAUGUAACUGAUUUGCCCAGCUGAAUCAGGACUGCAAAUGCCAGGCUUUC	0.361
ACAAAGACAGAGAUUUGGUCUGCUUGACUUUCCCAACCCAAUUGGCCCCAUUGGAGAGCCAUCCAAACUGAGGAAAAUUAGGGGACUCCAAAAGAGUUUGAUUCUGGCAC	0.219
AUUCCUGUCGGCGGCCUGGGAUGGUCCGCCACGAGGAGCUUCCAGUGCAUGUUGCCAUGAGGCCUUUCCCCAGUGUGGCCCCAGCCCGACAGGCAUGCACCAGUGCCGCC	8.69
UCACAGUCACAGAGAUCACCUGCCCCCUCUGCCUUUCAAGUACAGGGAUUAAAGGCAUGCAUCACCACAGCCUACAGCAAUGUGUGUCUUAUAUACUAUGAGAUAGUGAG	0.628
GCGGUCAUCCUAUCGGCGUGGCCUAGGUCCCUUGUGUGUGUAGCACAUCCCUGCUUUUGACUGAACACUGCACAGAAGCCCCUGAAAUAGGGCCUCUCCCUCGUUGUCAU	0.272

Sample 2
Target: Interferon regulatory factor 7, full length, phosphomimetic (IRF7, Homo sapiens, UniProt Q92985, residues 1-503, S471D/S472D/S475D/S476D/S477D/S483D/S484D/S487D)
UniProt Q92985, sequence (whole entry, unmodified, looked up): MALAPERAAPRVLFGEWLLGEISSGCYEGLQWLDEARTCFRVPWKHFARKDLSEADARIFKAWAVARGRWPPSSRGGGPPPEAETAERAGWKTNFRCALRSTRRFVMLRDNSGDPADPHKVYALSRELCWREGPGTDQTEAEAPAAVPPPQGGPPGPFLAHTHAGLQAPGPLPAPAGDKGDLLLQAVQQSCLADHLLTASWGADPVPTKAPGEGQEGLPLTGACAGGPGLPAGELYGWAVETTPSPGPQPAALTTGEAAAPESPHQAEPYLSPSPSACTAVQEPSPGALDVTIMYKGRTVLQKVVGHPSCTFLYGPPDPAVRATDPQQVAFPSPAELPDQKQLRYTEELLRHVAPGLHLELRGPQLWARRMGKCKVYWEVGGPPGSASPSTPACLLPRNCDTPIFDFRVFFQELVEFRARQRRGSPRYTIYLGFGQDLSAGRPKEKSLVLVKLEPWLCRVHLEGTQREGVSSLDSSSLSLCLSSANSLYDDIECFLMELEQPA
Technique: protein-binding microarray
Form: double-stranded DNA, one strand shown
Sample: in vitro
Tested at: 2200 nM top
Setting: 60-bp whole probe
With: salmon DNA 0.4 mg/ml
Baseline: random background probes
Reading: higher = stronger binding
Constant ends, left off below: GCCTAGCAC … GTCTTGATTCGCTTGACGCTGCTG
Strand	fitted relative affinity [z-score]
GGGACTTTGAATTAGAAAGAGTGCTAG	-0.958
TTAGATTTCGGGTATCGATAAGTGCTA	2.41
TCAAAATTTTTTTTCTAACTGTGCTAG	-0.36
GACGGTCTCCTTCTCCTGTCGTGCTAG	1.61
TTTGGTATCGGGACTGGGTTAGTGCTA	0.409
TTAGGACTGGGTATCGGTTGGTGCTAG	-0.145
CTCTAACTCAAGATTCCTCTCGTGCTA	0.629
TCTGTTTTCGCTTTCTTTAAGTGCTAG	12.5
TTACGTTTCCTTATCCTTTAGTGCTAG	4.52
GACGAACTGAGTCTAGAGACGTGCTAG	-0.174
GACGATCTCAGTCACGAGACGTGCTAG	0.101
TTAGGTCTCGGTAGCGGTTAGTGCTAG	-0.0455
GACGAACTGAGGCTGGAGACGTGCTAG	-0.403
TCAATCTTCACTCTTAATTAGTGCTAG	0.616
TTAGGTTTCGGTATCGCTTAGTGCTAG	7.16
GCCGGTTTCGACACTGGGGACGTGCTA	3.84
GACGGTTTCAGTCTCGAGACGTGCTAG	2
GACGTACTGAGTATCGAGACGTGCTAG	0.0876
TCATCTTTTATGCTCTTACTGTGCTAG	1.63

Sample 3
Target: Histone acetyltransferase KAT6A, winged helix 1, GST fusion (KAT6A, Homo sapiens, UniProt Q92794, residues 1-85)
Technique: protein binding microarray
Form: double-stranded DNA, one strand shown
Sample: in vitro
Tested at: not given
Setting: 8-mer, flanks averaged, mean of 2 arrays, mostly near background
Baseline: not given
Reading: higher = stronger binding
Target sequence (chain): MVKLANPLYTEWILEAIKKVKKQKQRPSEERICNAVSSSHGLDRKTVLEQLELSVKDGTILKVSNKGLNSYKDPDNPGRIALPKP
Strand	E-score
CGGTCTTC	0.0738
ATCTTGTG	-0.295
CCGCCGGC	0.487
ACTGGGCG	0.0575
CGATAAGC	0.17
AGGCGATC	-0.0384
ACCTATAC	-0.00995
CGCTACCA	0.239
AGGATGTG	-0.219
CAACGCGG	0.348
AAAGCAAT	-0.131
ACCTCTAC	-0.0281
CGACCCCG	0.38
CTCGTTAA	-0.125
ATTGGTCG	-0.0987
GCCGGGAC	0.339
AGAGCGAT	-0.199
GTTATAAA	-0.125
ATGTAGAC	-0.0181
CACGTGGA	-0.213
CAGTGTGA	-0.236

Sample 4
Target: ABI1, truncated, D143A, DHFR fusion (Arabidopsis thaliana)
Technique: DHFR PCA, deep sequencing
Sample: yeast
Setting: methotrexate growth selection, single substitutions
With: (+)-ABA 1.4 µM
Baseline: wild-type fitted maximum
Reading: higher = stronger binding
Parent: PYL1, truncated, DHFR fusion (Arabidopsis thaliana); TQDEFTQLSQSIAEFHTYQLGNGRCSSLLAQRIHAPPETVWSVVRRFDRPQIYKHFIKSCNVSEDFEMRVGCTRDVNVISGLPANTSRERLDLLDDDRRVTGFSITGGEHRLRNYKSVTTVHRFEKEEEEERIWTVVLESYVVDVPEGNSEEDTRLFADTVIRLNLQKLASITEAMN; partner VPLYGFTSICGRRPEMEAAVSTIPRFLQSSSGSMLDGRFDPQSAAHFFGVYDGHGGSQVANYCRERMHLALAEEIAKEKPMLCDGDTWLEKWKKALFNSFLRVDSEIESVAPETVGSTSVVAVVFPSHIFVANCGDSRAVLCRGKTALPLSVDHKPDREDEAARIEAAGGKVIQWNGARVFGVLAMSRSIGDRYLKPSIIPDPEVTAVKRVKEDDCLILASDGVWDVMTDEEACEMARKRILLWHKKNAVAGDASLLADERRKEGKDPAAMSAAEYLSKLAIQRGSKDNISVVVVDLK
Variant	relative binding score
F103Q	-1.73%
P83M	-6.77%
T120E	-3.96%
F66C	30.2%
R155P	8.2%
A175D	46.9%
N85D	45.8%
R132V	56.9%
A35L	-14.7%
I105Y	-2.69%
Y141C	3.62%
R24T	58.8%
L82F	56%
L112V	-6.88%
V62Y	1.13%
V142Q	47.1%
D3W	40.3%
P37C	29.6%
V70M	9.65%
K116Q	42.6%
T39F	0.869%
D65V	13%
